# Measured values of several laboratories.
# Compare with care: the assays were run in different laboratories. ± gives the spread as reported.
# CASP7: Caspase-7 (CASP7, Homo sapiens, UniProt P55210)
# Sequence of UniProt P55210 (whole entry, looked up): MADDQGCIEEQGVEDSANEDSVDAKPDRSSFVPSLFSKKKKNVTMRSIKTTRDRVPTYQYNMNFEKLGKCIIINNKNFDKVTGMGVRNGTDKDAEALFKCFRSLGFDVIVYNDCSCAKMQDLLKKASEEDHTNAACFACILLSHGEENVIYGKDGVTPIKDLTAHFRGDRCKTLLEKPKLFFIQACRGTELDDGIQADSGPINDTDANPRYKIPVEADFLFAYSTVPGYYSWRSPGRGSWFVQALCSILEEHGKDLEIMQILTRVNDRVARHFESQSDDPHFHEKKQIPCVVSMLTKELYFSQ
# Gria2: Glutamate receptor 2 (Gria2, Rattus norvegicus, UniProt P19491)
# Sequence of UniProt P19491 (whole entry, looked up): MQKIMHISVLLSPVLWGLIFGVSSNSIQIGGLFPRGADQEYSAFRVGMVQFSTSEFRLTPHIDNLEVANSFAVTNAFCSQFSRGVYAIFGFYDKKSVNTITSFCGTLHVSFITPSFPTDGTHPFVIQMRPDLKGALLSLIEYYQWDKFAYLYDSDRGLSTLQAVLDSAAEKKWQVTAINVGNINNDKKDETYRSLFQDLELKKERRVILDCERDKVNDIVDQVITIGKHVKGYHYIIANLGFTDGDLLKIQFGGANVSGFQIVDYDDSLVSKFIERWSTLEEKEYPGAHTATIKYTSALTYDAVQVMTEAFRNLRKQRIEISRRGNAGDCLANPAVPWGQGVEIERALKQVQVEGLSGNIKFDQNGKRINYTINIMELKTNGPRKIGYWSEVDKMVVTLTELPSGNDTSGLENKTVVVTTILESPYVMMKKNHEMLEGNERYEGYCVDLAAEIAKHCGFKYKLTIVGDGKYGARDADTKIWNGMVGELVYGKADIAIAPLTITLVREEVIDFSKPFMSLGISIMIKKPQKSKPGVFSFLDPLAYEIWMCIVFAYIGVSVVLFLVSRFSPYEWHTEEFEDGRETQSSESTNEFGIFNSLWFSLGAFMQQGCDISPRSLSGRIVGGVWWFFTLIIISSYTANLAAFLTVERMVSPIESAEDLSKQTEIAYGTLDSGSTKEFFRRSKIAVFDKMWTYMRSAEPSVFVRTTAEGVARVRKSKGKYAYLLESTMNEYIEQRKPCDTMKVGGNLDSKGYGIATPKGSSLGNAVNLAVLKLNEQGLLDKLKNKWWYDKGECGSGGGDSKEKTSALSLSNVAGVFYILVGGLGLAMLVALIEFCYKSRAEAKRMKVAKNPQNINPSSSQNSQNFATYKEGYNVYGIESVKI
# T1: G-quadruplex DNA, parallel G-quadruplex (Homo sapiens); GGGTGGGGAGGGTGGGG
# Sequence of UniProt P09936 (whole entry, looked up): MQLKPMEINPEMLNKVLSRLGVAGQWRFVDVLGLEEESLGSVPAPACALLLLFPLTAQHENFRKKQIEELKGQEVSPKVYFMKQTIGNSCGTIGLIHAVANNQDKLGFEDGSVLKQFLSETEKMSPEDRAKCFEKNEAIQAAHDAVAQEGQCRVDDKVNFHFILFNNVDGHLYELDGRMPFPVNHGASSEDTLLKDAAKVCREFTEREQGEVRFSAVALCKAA
# Sequence of UniProt P34972 (whole entry, looked up): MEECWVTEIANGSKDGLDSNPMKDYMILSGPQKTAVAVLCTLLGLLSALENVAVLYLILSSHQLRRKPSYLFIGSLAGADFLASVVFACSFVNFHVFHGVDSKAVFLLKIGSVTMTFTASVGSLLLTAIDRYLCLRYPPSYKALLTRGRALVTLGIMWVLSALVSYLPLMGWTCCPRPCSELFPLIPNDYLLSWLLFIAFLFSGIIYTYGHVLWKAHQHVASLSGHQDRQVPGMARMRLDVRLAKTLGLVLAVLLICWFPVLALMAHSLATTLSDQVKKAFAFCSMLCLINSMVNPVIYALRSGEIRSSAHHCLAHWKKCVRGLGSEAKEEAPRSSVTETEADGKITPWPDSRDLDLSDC
# Sequence of UniProt P21452 (whole entry, looked up): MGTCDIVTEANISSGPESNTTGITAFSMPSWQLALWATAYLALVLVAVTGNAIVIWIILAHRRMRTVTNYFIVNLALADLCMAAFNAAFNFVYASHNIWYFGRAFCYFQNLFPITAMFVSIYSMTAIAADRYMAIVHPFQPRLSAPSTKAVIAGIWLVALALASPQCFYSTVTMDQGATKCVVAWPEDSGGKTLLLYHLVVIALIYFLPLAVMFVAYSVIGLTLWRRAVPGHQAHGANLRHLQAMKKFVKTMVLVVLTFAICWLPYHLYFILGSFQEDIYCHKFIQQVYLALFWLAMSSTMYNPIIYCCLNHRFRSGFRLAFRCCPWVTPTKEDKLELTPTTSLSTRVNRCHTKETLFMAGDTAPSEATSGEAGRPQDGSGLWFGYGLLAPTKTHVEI
# Sequence of UniProt P33240 (whole entry, looked up): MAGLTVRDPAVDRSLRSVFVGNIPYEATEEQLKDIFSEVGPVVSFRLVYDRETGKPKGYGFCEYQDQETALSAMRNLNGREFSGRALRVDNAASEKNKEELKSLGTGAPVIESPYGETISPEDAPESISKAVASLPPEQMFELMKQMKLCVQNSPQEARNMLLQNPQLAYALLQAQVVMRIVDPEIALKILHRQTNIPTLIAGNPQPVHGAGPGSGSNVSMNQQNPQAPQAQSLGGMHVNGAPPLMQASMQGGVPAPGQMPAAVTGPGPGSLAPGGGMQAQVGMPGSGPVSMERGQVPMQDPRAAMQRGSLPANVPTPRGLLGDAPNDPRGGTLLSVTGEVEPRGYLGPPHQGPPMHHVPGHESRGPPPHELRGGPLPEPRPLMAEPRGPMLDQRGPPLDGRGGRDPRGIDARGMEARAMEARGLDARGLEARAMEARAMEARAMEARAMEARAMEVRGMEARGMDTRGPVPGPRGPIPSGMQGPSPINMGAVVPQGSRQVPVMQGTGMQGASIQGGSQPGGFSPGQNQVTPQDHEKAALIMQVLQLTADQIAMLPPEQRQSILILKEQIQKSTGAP
# Sequence of UniProt Q15165 (whole entry, looked up): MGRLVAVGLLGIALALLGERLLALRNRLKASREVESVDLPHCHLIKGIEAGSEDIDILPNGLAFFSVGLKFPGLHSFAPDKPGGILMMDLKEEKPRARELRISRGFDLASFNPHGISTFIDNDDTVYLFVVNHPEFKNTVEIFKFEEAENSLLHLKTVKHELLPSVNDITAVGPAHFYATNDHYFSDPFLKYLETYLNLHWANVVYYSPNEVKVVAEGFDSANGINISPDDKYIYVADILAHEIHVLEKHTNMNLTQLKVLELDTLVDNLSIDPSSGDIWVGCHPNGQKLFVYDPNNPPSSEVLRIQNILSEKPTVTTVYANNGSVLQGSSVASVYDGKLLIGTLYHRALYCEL
# Sequence of UniProt Q9UKP6 (whole entry, unmodified, looked up): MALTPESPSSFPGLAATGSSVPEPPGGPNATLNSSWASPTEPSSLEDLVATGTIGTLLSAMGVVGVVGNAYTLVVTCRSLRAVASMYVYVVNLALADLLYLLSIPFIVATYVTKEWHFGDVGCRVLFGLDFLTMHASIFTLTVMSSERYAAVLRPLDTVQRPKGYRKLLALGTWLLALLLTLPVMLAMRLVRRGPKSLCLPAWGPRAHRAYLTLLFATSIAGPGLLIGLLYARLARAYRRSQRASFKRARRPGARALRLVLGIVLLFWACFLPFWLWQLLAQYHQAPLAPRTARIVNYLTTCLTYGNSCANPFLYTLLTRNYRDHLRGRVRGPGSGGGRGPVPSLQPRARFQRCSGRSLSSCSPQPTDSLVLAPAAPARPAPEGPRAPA
# Sequence of UniProt Q86Y07 (whole entry, looked up): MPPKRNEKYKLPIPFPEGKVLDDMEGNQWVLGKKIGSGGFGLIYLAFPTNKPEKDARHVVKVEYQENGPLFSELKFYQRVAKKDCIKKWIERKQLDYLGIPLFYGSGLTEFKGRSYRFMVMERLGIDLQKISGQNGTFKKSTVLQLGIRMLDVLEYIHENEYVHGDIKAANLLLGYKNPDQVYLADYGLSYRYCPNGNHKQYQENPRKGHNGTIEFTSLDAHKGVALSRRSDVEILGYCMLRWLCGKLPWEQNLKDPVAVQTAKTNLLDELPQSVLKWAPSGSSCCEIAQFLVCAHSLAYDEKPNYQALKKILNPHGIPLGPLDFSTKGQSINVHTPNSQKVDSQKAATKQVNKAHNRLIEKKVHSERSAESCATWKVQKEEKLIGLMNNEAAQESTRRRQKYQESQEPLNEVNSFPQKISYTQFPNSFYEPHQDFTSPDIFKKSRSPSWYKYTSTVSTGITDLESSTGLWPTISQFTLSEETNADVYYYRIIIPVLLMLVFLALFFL
Compound,target,test,system,setting,scale,measurement,result
Cc1ccc(-c2c[nH]nc2C(=O)Nc2cccnc2)c(C)c1,human kinase panel,"binding, KINOMEscan",,"10000 nM, %Ctrl below 35",,number of kinases hit,1
CC(=O)N[C@H](C(=O)N[C@@H](CCC(=O)O)C(=O)N[C@@H](CCCCN(C)C)C(=O)N[C@@H](CC(=O)O)C(=O)COC(=O)c1c(C)cccc1C)C(C)C,CASP7,"enzyme activity, inhibitor",,,,kinact/KI,10500 M⁻¹ s⁻¹
CCOC(=O)C(CC)(CCCSCCCCCCN)NC(=O)c1ccc(C2CC2)c(Cc2ccc(F)cc2)n1 (stereo not drawn),"CNR2 (Homo sapiens, UniProt P34972)",radioligand binding,,,reference: CB1 over CB2 (human),Ki ratio,75
Cc1cc(NC(=O)[C@H](O)c2cc(F)cc(F)c2)ccc1-c1cnc(N)c(C(=O)NC(C)C)c1,"VRK2 (Homo sapiens, UniProt Q86Y07)","binding, competition with immobilised ligand",,0.1 µM,,remaining binding,65%
Cc1cc(C)cc(COc2cc3c(cc2OCc2cc(C)cc(C)c2)C2CC(O)(Cc4cn(CCOCCOCCNC(=O)CCCCC5SCC6NC(=O)NC65)nn4)CC(C)N2CC3)c1 (stereo not drawn),"Serum paraoxonase/arylesterase 2 (Homo sapiens, UniProt Q15165)","biotinylated probe pull-down, measured: PON2",,10 µM probe,reference: heavy over light,SILAC ratio,2.08
CC(=O)N1CCC[C@H]1C(=O)N[C@@H](CCC(N)=O)C(=O)N[C@@H](C)C(=O)N[C@@H](CC(=O)O)C(=O)COC(=O)c1c(C)cccc1C,CASP7,"enzyme activity, inhibitor",,,,kinact/KI,6900 M⁻¹ s⁻¹
O=C(O)Cc1cc2c(cc1C(=O)c1cccc(Cl)c1)OCO2,Gria2,"glutamate-evoked current, whole-cell patch clamp",HEK-293T,"concentration not given, weighted tau, 500 ms pulse, together with: glutamate",,desensitization time constant,0.7 ± 0.06 ms
O=C1c2sc(-c3ccc(N4CCC(CO)CC4)nc3F)nc2CCN1c1cccnc1,"TACR2 (Homo sapiens, UniProt P21452)","ligand displacement, radioligand",,1 µM,,inhibition,7%
CC(C)[C@H](NC(=O)[C@@H]1CSSC(C)(C)[C@H](NC(=O)[C@@H](N)CC(=O)O)C(=O)N[C@@H](Cc2ccccc2)C(=O)N[C@@H](Cc2c[nH]c3ccccc23)C(=O)N[C@@H](CCCCN)C(=O)N[C@@H](Cc2ccc(O)cc2)C(=O)N1)C(=O)O,"UTS2R (Homo sapiens, UniProt Q9UKP6, F127A)","IP1 accumulation, agonist, IP1 HTRF",HEK293T,,reference: wild-type receptor,span,137 ± 12%
O=C(O)Cc1cc2c(cc1C(=O)c1ccccc1Br)OCO2,Gria2,whole-cell patch clamp,HEK-293T,"concentration not given, together with: glutamate",,desensitization time constant,1.1 ± 0.1 ms
CCCCCC(O)/C=C/C=O (stereo not drawn),"Cleavage stimulation factor subunit 2 (CSTF2, Homo sapiens, UniProt P33240)","competitive isoTOP-ABPP, measured: CSTF2 cysteine peptide","proteome, soluble, MDA-MB-231","100 µM, together with: iodoacetamide probe","reference: DMSO over compound-treated, higher = stronger cysteine blockade",isoTOP-ABPP competition ratio,1.8
Cc1c(C(=O)Nc2cccc(C(N)=O)c2)cnn1-c1ccccc1,"Genome polyprotein, NS2B-NS3 protease (dengue virus type 2, UniProt P29990)",reporter gene,HeLa,12.5 µM,,inhibition,27 ± 12%
N#CN1CC[C@H](C(=O)Nc2nc3c(s2)CN(C(=O)Cn2cc(COCCOCCOCCOCCNC(=O)CCCC[C@@H]4SC[C@@H]5NC(=O)N[C@@H]54)nn2)CC3)C1,"UCHL1 (Homo sapiens, UniProt P09936)","probe binding, affinity probe, neutravidin pull-down LC-MS/MS","HEK293T, cell lysate","5 µM, 1 h, mean of three replicates, unit not given",higher = more pulled down,iBAQ abundance,2.07e+09
O=C(CN1CCCCC1)Nc1ccc2[nH]c(-c3cccc(-c4nc5cc(NC(=O)CN6CCCCC6)ccc5[nH]4)n3)nc2c1,"T1, G-quadruplex DNA, parallel G-quadruplex (Homo sapiens)",BLI,,"parallel G4, read off a plot",,Kd,5.74 µM
COc1cc(-c2cn(C)c(=O)c3cnccc23)cc(OC)c1CN(C)C,"PHIP, BD2 (Homo sapiens, UniProt Q8WWQ0)",,,,,ΔTm,-0.3 °C

# Some of these lines once more:
Compound,target,test,system,setting,scale,measurement,result
Cc1c(C(=O)Nc2cccc(C(N)=O)c2)cnn1-c1ccccc1,"Genome polyprotein, NS2B-NS3 protease (dengue virus type 2, UniProt P29990)",reporter gene,HeLa,12.5 µM,,inhibition,27 ± 12%
